# Results pooled from the literature.
# Numbered parts are unrelated; each lists some results of a single study. Substitutions count along the parent as printed.

# Set 1
# Target: Sal-like protein 4, full length isoform B (SALL4, Homo sapiens, UniProt Q9UJQ4-2, residues 1-616)
# Technique: universal PBM
# Form: double-stranded DNA, one strand shown
# Matrix: in vitro
# Concentration: not given
# Notes: 8-mer, flanks averaged, mean of replicates
# Direction: higher = stronger binding
Strand,E-score
CGGTAACC,-0.282
AACAAGCT,0.0438
TAAAGTGA,0.245
ACGGGTGA,-0.246
AGAGCGCT,-0.133
ACACTCGG,-0.115
AAGCAGGT,-0.0732
AAATAGGA,0.194
AGCGAGAA,0.0599
ACTAACAT,0.187
GATGACGC,-0.143
TCCCTCCA,-0.245
GCTATTGA,0.0521
CCCTGTAC,-0.223
ATGATTTA,0.282
AAGTTCCG,-0.0279
ACCGGGCA,-0.338
CAAATGTA,0.306
CGTACGAC,0.0119
ACACTACC,-0.244
ATCTAGCA,0.0743
GCGCATAA,0.165
GATGTCTA,0.164
ACTTGTGA,0.116
CATCAACC,0.0685

# Set 2
# Target: ABI1, truncated, D143A, DHFR fusion (Arabidopsis thaliana)
# Technique: DHFR PCA, deep sequencing
# Matrix: yeast
# Notes: methotrexate growth selection, single substitutions
# Added: (+)-ABA 0.032 µM
# Baseline: wild-type fitted maximum
# Direction: higher = stronger binding
# Starting sequence: PYL1, truncated, DHFR fusion (Arabidopsis thaliana); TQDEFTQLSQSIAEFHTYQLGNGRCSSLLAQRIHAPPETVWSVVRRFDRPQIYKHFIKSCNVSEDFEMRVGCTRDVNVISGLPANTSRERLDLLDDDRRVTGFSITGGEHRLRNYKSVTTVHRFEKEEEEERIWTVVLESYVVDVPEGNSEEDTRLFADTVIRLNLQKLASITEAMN; partner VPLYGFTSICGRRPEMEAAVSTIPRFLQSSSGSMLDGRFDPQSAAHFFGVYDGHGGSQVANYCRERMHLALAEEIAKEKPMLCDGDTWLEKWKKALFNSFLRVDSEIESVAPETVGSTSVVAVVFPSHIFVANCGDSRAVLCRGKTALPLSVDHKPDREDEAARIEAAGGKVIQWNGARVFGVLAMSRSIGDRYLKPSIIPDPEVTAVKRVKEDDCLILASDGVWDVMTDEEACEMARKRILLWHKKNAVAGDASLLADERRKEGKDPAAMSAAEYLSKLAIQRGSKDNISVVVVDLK
Change,relative binding score [%]
Y115P,-3.68
V40K,-7.22
V142Q,6.46
D75E,50.6
L91Y,-5.97
G21I,4.21
D3W,15.4
G71N,0.97
P37C,6
K116Q,25.5
F103Q,0.48
E125C,39.9
L112V,-3.87
E147C,6.79
H55K,6.86
R90N,0.00852
Y141C,4.17
T120E,0.241
G21A,21.7
V70N,1.2
L112N,-4.64
P146F,-3.67
E130H,23.7
R163Y,-14
A175L,2.55

# Set 3
# Target: CCNA2, cyclin fold, Cln2 fusion (human)
# Technique: yeast growth competition, sequencing
# Matrix: yeast
# Notes: strong parent motif
# Baseline: not given
# Direction: higher = stronger binding
# Starting sequence: E2F1 docking peptide (human); PPVKRRLDLETDH; partner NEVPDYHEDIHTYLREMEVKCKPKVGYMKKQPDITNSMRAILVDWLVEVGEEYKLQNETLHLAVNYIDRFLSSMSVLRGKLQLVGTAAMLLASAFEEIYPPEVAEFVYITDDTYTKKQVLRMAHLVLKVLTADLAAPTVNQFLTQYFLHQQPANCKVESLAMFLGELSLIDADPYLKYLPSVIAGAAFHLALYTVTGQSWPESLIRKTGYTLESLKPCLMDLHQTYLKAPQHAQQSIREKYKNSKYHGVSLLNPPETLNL
Change,normalised enrichment score
PPVKRRLDLETDA [H13A],4.02
PPVKRRLDLETDD [H13D],4.48
PPVKRRWDLETDH [L7W],0.785
PPVKRRLDLETLH [D12L],4.18
PPLKRRLDLETDH [V3L],1.34
PNVKRRLDLETDH [P2N],3.87
PPQKRRLDLETDH [V3Q],0.701
LPVKRRLDLETDH [P1L],5.97
PPVSRRLDLETDH [K4S],3.07
PPVVRRLDLETDH [K4V],2.49
PPVKRALDLETDH [R6A],1.72
PPVKIRLDLETDH [R5I],0.0232
PPVKRRHDLETDH [L7H],-0.147
PPVKRRLDLEADH [T11A],4.21
PPVQRRLDLETDH [K4Q],2.54
PPSKRRLDLETDH [V3S],2.87
PPVKRRLDLETDQ [H13Q],4.23

# Set 4
# Target: TAR DNA-binding protein 43, full length, His tag (TARDBP, Homo sapiens, UniProt Q13148, residues 1-414)
# Technique: RNA Bind-n-Seq
# Form: RNA
# Matrix: in vitro
# Concentration: 20 nM
# Notes: 6-mer, flanks averaged, single round
# Added: 150 mM LiCl
# Baseline: input library
# Direction: higher = stronger binding
Strand,6-mer enrichment (R)
UACACC,0.985
GAACGA,0.871
UUGUGU,1.9
UAGGUG,1.21
UAGCUA,0.872
GUACGG,1.05
CUCGAG,0.86
CGAAAG,0.815
UAGCCG,0.89
